Measurements collected from several papers.
Protocols differ between the studies behind these lines.
ACVR2A: Activin receptor type-2A (ACVR2A, Homo sapiens, UniProt P27037)
TDP1: Tyrosyl-DNA phosphodiesterase 1 (TDP1, Homo sapiens, UniProt Q9NUW8)
Chain of UniProt Q9NUW8 (whole entry, looked up): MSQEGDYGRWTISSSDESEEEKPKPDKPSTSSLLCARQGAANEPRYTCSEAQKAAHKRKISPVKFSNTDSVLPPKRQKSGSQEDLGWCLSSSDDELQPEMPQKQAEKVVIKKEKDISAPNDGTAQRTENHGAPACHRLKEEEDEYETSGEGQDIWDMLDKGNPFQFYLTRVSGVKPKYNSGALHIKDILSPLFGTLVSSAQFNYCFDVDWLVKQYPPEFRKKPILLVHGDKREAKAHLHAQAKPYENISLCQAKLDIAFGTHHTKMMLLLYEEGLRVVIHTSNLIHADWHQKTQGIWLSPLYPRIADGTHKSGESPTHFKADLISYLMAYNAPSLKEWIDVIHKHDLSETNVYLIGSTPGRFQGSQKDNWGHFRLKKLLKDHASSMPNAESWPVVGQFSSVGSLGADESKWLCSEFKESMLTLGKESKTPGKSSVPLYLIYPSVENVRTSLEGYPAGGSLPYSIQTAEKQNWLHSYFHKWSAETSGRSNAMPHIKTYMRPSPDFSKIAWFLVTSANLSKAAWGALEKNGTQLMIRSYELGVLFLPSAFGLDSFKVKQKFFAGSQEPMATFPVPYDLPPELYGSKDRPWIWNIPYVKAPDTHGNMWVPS

CCN1CCN(Cc2ccc(C(=O)Nc3ccc(C)c(NCc4cnc5[nH]ccc5c4OC)c3)cc2C(F)(F)F)CC1 — remaining binding (ACVR2A; binding, competition with immobilised ligand; 1 µM): 100%
Nc1oc2ccc(F)cc2c(=O)c1C=NOCc1ccc2nc(-c3ccccc3)c(Nc3ccc(C(=O)O)cc3)n2c1 (mixture of isomers) — inhibition (TDP1; enzyme activity, inhibitor; 100 µM, unpurified compound): 2.6%
COc1cc(Nc2nccc(-c3cnn4nc(OC)ccc34)n2)cc(C(F)(F)F)c1 — remaining binding (ACVR2A; binding, competition with immobilised ligand; 1 µM): 76%
Cc1ccc(-c2c(/C=C(\C#N)C(=O)NC(C)C)n(CCCO)c3ncnc(N)c23)cc1 — remaining binding (ACVR2A; cell-free assay, competition with immobilised ligand; 1 µM): 93%
C=CC(=O)N1CCCC(n2c(=O)c3ncccc3n(Cc3ccc(Oc4ccccc4)cc3)c2=O)C1 (stereo not drawn) — remaining binding (ACVR2A; cell-free assay, competition with immobilised ligand; 1 µM): 75%
CNC(=O)C[C@H](Cc1ccc(C#N)cc1)NC(=O)c1cc(-c2ccc(CN[C@H](C)c3ccc(C)cc3)o2)ccc1Cl — activity vs control (ACVR2A; enzyme activity, inhibitor; 1 µM): 107%
CNC(=O)C1CCN(c2cc(C)c(F)cc2NC(=O)c2ccc(-c3cc(O)ccc3C)c(C)c2)CC1 — remaining binding (ACVR2A; binding, competition with immobilised ligand; 1 µM): 100%
CC(C)=CC1OC(C)(C)C2C=C3C(=O)C(Cl)=CC(O)C3C3C(O)C4OC4C(=O)C132 (stereo not drawn) — remaining binding (ACVR2A; cell-free assay, competition with immobilised ligand; 10 µM): 99%
Nc1ncc2c(n1)-c1c([nH]c3ccc(C4=CCOCC4)cc13)CCC2 — remaining binding (ACVR2A; binding, competition with immobilised ligand; 1 µM): 98%
CNC1C[S+]2CC[S+]3CC[S+](C1)[Ru-4]321([N]=C=S)[n]2c3ccc(OC)cc3c3c4c(c5cc(F)c[n+]1c5c32)C(=O)NC4=O (stereo not drawn) — remaining binding (ACVR2A; KinomeScan; 0.1 µM; baseline: untreated): 100%
CN1CCN(Cc2ccc(-c3ccc(CO[C@H]4CCC[C@@H]4NC(=O)c4cc(-c5cnn(C)c5)cnc4N)cc3)cc2)CC1 — inhibition (ACVR2A; enzyme activity, inhibitor; 0.1 µM): 4%
C=CC(=O)N1CCc2ccc(-n3c(=O)ccc4cnc5ccc(-c6cnn(C)c6)cc5c43)cc21 — remaining binding (ACVR2A; KINOMEscan; 1 µM; baseline: DMSO control): 81%
C=CC(=O)N1Cc2nc(-c3cc(-c4cc(Cl)cnc4Cl)c(F)cc3F)n(-c3ccncn3)c2C1 — inhibition (ACVR2A; cell-free assay; 1 µM): -1%
COc1c(Cl)cccc1Nc1c(-c2ccncc2C#C[C@@]2(C)CCCN2C(=O)/C=C/CN(C)C)[nH]c2c1C(=O)NCC2 — remaining binding (ACVR2A; cell-free assay, competition with immobilised ligand; 3 µM): 100%
Cc1ccc(-c2nn(-c3ccccc3)cc2C=NOCc2ccc3nc(-c4ccccc4)c(Nc4ccc(C(=O)O)cc4)n3c2)o1 — inhibition (TDP1; enzyme activity, inhibitor; 100 µM, unpurified compound): 58.9%
CN1CC[C@@H](COc2cnc(C#N)cc2-c2ccn3nc(NC(=O)C4CC4)cc3c2)C1 — inhibition (ACVR2A; enzyme activity, inhibitor; 1 µM): -4%
Cc1cnc2nc1Nc1cccc(c1)COC/C=C/COCc1cc(ccc1OCCN1CCOCC1)N2 — remaining binding (ACVR2A; binding; 0.1 µM): 93%
O=C(Cc1ccc(OCc2ccccc2)cc1)NC1(C(=O)O)CCN(C(=O)c2ccc(-c3cccc(Cl)c3)cc2)CC1 — activity vs control (ACVR2A; enzyme activity, inhibitor; 10 µM): 95%

A few entries again:
COc1cc(Nc2nccc(-c3cnn4nc(OC)ccc34)n2)cc(C(F)(F)F)c1 — remaining binding (ACVR2A; binding, competition with immobilised ligand; 1 µM): 76%
O=C(Cc1ccc(OCc2ccccc2)cc1)NC1(C(=O)O)CCN(C(=O)c2ccc(-c3cccc(Cl)c3)cc2)CC1 — activity vs control (ACVR2A; enzyme activity, inhibitor; 10 µM): 95%
CNC1C[S+]2CC[S+]3CC[S+](C1)[Ru-4]321([N]=C=S)[n]2c3ccc(OC)cc3c3c4c(c5cc(F)c[n+]1c5c32)C(=O)NC4=O (stereo not drawn) — remaining binding (ACVR2A; KinomeScan; 0.1 µM; baseline: untreated): 100%
